Experimental data of several laboratories.
Compare with care: the assays were run in different laboratories. “And” joins repeats or separate records; there may be more than shown. Numbers after ± are the reported error.
ACHE: Acetylcholinesterase (ACHE, Homo sapiens, UniProt P22303)
UniProt P22303, sequence (whole entry, looked up): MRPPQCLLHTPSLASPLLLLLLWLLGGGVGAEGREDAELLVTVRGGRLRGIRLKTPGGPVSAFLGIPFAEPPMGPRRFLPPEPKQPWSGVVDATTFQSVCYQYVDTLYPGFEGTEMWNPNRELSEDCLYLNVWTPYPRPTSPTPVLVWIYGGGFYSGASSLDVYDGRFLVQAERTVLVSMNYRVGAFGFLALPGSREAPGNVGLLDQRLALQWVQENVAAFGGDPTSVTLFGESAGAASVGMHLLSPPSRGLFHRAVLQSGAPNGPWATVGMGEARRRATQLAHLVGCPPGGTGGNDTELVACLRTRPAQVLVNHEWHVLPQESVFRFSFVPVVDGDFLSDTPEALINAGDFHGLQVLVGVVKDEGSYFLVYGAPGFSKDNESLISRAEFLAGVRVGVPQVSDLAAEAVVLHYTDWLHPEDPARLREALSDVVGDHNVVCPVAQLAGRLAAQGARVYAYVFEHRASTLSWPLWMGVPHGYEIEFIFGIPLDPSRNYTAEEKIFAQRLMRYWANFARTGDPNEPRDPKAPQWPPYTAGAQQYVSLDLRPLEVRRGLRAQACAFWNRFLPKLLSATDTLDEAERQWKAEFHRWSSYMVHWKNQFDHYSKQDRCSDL
PFF0160c E182D: Dihydroorotate dehydrogenase (quinone), mitochondrial (PFF0160c, Plasmodium falciparum, UniProt Q08210, E182D)
Aryl hydrocarbon receptor: Aryl hydrocarbon receptor (Danio rerio, UniProt Q9YGV3)
UniProt D0VWV4, sequence (whole entry, looked up): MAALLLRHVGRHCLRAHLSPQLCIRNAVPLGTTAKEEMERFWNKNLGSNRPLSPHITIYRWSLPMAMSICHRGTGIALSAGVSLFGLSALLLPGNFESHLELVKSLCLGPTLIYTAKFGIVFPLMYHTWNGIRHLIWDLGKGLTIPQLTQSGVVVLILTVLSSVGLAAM
UniProt Q007T0, sequence (whole entry, looked up): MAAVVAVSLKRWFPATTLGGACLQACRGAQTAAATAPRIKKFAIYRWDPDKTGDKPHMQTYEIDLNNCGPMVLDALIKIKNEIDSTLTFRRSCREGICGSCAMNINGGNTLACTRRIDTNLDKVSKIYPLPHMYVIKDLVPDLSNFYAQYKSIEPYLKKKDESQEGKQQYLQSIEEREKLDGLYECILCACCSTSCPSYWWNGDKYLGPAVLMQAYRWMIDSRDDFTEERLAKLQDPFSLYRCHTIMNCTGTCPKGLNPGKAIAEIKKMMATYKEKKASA
UniProt A5GZW8, sequence (whole entry, looked up): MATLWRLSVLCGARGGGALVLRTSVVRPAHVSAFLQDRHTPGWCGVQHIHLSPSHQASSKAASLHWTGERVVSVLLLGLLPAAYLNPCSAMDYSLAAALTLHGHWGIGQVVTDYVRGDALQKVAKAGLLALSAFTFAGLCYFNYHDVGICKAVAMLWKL
UniProt Q62351, sequence (whole entry, looked up): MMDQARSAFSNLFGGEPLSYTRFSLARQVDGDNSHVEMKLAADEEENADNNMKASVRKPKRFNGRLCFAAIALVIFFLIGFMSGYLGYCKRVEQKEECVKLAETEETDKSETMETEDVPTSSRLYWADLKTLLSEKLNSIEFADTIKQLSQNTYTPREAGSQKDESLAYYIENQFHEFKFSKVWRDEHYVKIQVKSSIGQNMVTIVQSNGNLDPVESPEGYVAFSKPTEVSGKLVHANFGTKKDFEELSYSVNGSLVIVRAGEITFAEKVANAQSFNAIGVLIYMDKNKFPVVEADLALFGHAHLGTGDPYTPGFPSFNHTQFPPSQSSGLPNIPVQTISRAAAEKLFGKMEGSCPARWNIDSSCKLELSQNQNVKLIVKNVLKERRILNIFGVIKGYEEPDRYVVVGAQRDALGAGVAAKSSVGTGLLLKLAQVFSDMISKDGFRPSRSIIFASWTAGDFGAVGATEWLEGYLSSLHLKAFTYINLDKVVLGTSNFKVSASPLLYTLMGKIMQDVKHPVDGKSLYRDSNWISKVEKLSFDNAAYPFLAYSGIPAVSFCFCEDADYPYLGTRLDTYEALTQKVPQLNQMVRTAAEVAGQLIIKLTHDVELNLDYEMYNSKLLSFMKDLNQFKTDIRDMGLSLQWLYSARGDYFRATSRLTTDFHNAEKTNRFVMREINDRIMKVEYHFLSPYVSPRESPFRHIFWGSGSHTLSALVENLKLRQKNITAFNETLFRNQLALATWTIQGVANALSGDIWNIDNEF
UniProt Q96RI1, sequence (whole entry, looked up): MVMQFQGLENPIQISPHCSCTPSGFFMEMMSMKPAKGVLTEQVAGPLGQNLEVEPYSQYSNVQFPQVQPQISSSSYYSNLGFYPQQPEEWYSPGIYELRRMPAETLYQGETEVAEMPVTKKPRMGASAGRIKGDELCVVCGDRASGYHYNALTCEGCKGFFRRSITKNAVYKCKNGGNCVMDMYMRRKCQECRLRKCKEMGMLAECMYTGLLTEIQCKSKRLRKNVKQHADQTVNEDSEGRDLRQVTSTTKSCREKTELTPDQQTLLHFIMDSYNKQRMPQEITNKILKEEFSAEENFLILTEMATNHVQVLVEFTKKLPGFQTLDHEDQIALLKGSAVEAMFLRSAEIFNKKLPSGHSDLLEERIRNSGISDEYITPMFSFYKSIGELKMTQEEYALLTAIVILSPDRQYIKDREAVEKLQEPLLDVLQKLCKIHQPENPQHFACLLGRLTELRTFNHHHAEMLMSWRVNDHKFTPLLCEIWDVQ
UniProt P43088, sequence (whole entry, looked up): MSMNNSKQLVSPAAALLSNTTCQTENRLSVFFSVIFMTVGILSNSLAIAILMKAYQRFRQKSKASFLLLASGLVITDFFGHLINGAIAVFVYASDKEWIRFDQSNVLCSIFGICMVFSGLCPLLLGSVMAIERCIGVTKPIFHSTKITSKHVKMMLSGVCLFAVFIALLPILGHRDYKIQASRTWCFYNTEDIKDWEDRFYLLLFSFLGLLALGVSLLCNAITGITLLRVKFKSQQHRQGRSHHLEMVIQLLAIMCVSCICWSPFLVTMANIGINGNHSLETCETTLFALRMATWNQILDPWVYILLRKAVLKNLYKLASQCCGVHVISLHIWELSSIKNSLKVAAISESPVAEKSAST
UniProt P34998, sequence (whole entry, looked up): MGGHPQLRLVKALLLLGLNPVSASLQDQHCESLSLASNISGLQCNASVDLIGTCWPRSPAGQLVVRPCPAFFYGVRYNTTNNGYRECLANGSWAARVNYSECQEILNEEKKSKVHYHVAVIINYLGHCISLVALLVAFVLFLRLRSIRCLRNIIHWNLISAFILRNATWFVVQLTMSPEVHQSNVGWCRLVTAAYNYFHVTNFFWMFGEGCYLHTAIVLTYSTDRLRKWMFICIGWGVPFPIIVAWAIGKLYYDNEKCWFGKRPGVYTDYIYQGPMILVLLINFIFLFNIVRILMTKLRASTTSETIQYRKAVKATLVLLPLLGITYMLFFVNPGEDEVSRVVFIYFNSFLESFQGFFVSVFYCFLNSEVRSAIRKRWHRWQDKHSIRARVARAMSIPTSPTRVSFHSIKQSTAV
UniProt O00444, sequence (whole entry, looked up): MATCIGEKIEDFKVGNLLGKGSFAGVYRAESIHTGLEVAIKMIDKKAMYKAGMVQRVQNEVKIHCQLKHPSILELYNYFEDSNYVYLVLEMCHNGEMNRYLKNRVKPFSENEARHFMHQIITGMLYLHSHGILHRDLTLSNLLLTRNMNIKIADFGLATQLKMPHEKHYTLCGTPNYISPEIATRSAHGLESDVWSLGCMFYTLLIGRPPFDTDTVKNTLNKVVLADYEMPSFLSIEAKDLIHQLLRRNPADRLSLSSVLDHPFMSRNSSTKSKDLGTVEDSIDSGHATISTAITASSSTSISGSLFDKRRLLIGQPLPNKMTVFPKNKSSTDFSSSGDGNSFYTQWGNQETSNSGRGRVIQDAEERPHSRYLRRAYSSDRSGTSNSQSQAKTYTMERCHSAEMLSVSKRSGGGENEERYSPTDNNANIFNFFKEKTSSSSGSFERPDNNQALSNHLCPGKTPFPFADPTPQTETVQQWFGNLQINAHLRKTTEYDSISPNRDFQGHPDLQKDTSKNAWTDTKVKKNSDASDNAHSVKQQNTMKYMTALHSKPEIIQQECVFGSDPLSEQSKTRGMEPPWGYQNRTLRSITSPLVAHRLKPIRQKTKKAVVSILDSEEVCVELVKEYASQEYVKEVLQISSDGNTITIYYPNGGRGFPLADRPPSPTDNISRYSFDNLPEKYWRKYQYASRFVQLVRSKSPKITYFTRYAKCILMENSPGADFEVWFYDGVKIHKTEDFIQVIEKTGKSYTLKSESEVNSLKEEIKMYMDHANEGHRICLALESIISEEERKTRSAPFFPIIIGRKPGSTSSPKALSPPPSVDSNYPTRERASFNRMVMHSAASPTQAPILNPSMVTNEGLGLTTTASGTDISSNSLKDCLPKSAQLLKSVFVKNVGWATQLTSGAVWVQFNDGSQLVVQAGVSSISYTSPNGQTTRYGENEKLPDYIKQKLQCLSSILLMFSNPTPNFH
UniProt O94956, sequence (whole entry, looked up): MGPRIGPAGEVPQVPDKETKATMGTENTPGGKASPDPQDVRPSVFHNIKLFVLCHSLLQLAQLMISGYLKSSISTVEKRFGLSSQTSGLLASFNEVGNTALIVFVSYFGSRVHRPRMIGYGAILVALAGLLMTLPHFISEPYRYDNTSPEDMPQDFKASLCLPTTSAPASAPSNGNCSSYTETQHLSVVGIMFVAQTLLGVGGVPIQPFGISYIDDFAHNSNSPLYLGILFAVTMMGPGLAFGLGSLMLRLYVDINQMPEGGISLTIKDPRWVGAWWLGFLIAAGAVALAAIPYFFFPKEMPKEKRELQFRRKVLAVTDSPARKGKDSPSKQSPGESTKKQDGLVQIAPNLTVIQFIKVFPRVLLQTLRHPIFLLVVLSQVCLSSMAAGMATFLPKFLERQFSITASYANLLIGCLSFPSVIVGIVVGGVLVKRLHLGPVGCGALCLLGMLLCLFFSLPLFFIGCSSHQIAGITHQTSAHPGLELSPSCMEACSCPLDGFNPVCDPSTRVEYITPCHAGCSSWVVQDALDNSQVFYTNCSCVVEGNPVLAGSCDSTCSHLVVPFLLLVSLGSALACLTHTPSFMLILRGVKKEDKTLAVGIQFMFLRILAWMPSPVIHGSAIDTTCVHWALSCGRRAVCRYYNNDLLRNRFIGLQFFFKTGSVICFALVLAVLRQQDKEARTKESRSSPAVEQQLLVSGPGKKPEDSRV

Under “abnormal band quantity”, `COc1ccc(Nc2nn3c(-c4ccccc4)ccnc3c2C(=O)Nc2ccc(Cl)cc2)cc1` is recorded as 9.27 a.u. (α-amylase isoenzymes; native PAGE densitometry; 1 mg/mL; baseline: untreated enzyme (band absent)).
`CC(=O)N[C@@H](CSCCC=O)C(=O)O` gave a kcat of 3 s⁻¹ (N-acyl-aromatic-L-amino acid amidohydrolase (carboxylate-forming) (Acy3, Mus musculus, UniProt Q91XE4); substrate, fluorescamine; together with: Co2+ 0.1 mM).
The inhibition of `CC(=O)NC[C@H]1[C@H](O)[C@H](O)[C@@H]2[C@H](O)C[C@@H](CO)N21` is reported as 47.7% (Spodoptera litura β-N-acetylglucosaminidase; crude enzyme; 0.0125 µM, run 2, together with: p-nitrophenyl GlcNAc).
Under activity class, `CCN(CC)CCOC(=O)C(Cc1cccc2ccccc12)CC1CCCO1` (stereo not shown) is recorded as “inactive” (ACHE; biochemical; concentration not given).
`COc1cc(N)c(Cl)cc1C(=O)NC1CN2CCC1CC2` (stereo not shown): “log2 fold change” -0.051 (G-protein coupled receptor 20 (GPR20, Homo sapiens, UniProt Q99678); β-arrestin recruitment, TANGO luminescence, refers to: GPR20; concentration not given; baseline: basal luminescence).
With `Cc1nc2c(=O)sc3ccccc3c2n1Cc1ccccc1` the IC50 ratio was 0.1 (PFF0160c E182D; enzyme activity, DCIP colorimetric; baseline: E182D mutant over wild type).
The fold change of `c1ccc2c3c(ccc2c1)-c1cccc2cccc-3c12` is reported as 13.3 (Aryl hydrocarbon receptor; reporter gene, agonist, luciferase reporter; ZF-4; 123.5 µM; baseline: vehicle control).
`[2H]c1c([2H])c([C@]2([2H])CCCN2C(=O)C(C)(C)Oc2ccc3cn[nH]c3c2)c([2H])c([2H])c1C([2H])([2H])[2H]` has a remaining binding of 77% (Atypical kinase COQ8B, mitochondrial (COQ8B, Homo sapiens, UniProt Q96D53); KINOMEscan; 1 µM; baseline: DMSO control).
With `CCC(c1ccccc1)c1nn2c(-c3cccs3)nnc2s1` (stereo not shown) the IC50 ratio was 1.1 (PFF0160c E182D; enzyme activity, DCIP colorimetric; baseline: E182D mutant over wild type).
For `Cc1cn([C@H]2C[C@H](O)[C@@H](COP(=O)(O)OP(=O)(O)OP(=O)(O)O)O2)c(=O)[nH]c1=O`, “maximum incorporation rate” read 5 ± 0.6 s⁻¹ (DNA polymerase I, Klenow fragment (polA, Escherichia coli, UniProt P00582, C907S/D424A/L744C/Y766A); nucleotide incorporation, substrate, single-turnover rapid quench; together with: radiolabelled primer-template DNA).
`CC(Oc1c(Cl)cccc1Cl)C1=NCCN1` (stereo not shown) — result for activity class: “inactive” (ACHE; biochemical; concentration not given).
For `O=C(O)c1cc[c]([Hg][Cl])cc1`, the maximum inhibition was 8 ± 5% (Beta-lactamase TEM (bla, Escherichia coli, UniProt P62593); inhibitor).
Under “increase in binding signal”, `CCCCCCCCCCC[C@@H](C[C@@H]1OC(=O)[C@H]1CCCCCC)OC(=O)[C@H](CC(C)C)NC=O` is recorded as over 50% (Gag polyprotein, nucleocapsid protein p7 (gag, Human immunodeficiency virus type 1 group M subtype B, UniProt P04591); AlphaScreen; 45 µM, together with: U3 RNA; baseline: DMSO).
`Cc1ccc2c(c1)C1(C=C2)CCN(C2Cc3ccccc3CC2O)CC1` (racemic) has a selectivity ratio of 0.74 (Vesicular acetylcholine transporter (Rattus norvegicus, UniProt Q62666); baseline: Ki sigma1 over Ki VAChT).
`C[C@H]1CN(c2n[nH]c3nc(N[C@H]4CC[C@H](NS(=O)(=O)CCC(F)(F)F)CC4)ncc23)CCO1` has a relative abundance of 1 (Serine/threonine-protein kinase 17B (STK17B, Homo sapiens, UniProt O94768); inhibitor, Kinobeads competition profiling; 0.032 µM; baseline: vehicle).
The IC50 ratio of `Cc1cc(=O)oc2c1ccc1oc(C(O)c3ccc(Cl)cc3)c(C)c12` (stereo not shown) is reported as 2.6 (PFF0160c E182D; enzyme activity, DCIP colorimetric; baseline: E182D mutant over wild type).
`O=C(c1ccc(Cl)cc1)N1CCN2C(=O)N(OC(=O)N3CCOc4ccccc43)C(=O)C2C1` (stereo not shown) gave a median ratio of 1.17 (Phosphatidylserine lipase ABHD16A (Homo sapiens, UniProt O95870); enzyme activity, inhibitor, MS-based ABPP; SW-620 in situ; 10 µM, 2 h, 37 °C; baseline: compound over DMSO, lower = stronger inhibition).
With `Cc1cc(OC(C)C(=O)N2CCc3ccccc32)ccc1Cl` (stereo not shown) the IC50 ratio was 0.1 (PFF0160c E182D; enzyme activity, DCIP colorimetric; baseline: E182D mutant over wild type).
The EC20 of `Clc1cc2c(cc1Cl)Oc1cc(Cl)c(Cl)cc1O2` is reported as 0.00066 ± 0.00062 µM (Uncharacterized protein (Takifugu rubripes, UniProt Q4JHL3); reporter gene, agonist, dual-luciferase; COS-7; 24 h).
For `O=C(O)Cc1c[nH]cn1`, “normalised MST signal” read 0.815 (Sodium- and chloride-dependent taurine transporter (SLC6A6, Homo sapiens, UniProt P31641, Y138A); binding, microscale thermophoresis; 1 mM, room temperature, together with: 50 nM labelled protein; higher = more binding).
`O=C(Nc1cnccc1Cl)N1CCN(Cc2ccc3c(c2)OC(F)(F)O3)CC1` has an inhibition of 3% (Prostaglandin F2-alpha receptor (PTGFR, Homo sapiens, UniProt P43088); radioligand binding, inhibitor; 50 µM, human, together with: [3H]PGF2alpha).
`COc1ncccc1-c1cnn2ccc(N3CCN(C(=O)OC(C)C)CC3)nc12` has a remaining binding of 74% (Non-receptor tyrosine-protein kinase TYK2, JH2 pseudokinase domain (TYK2, Homo sapiens, UniProt P29597); KINOMEscan binding; 1 µM; baseline: untreated control).
`C=C(CN(C(=O)c1c(C(F)F)nn(C)c1F)C1CC1)c1ccc(Cl)cc1Cl` gave a reaction velocity of 0.0211 µM/s and 0.0206 µM/s (SDHD/SDHC/SDHB (Sus scrofa, UniProt A5GZW8+D0VWV4+Q007T0); enzyme activity, inhibitor, DCIP reduction; pig; 0.1 µM, together with: DCIP 120 µM).
For `CN1CCc2[nH]c3ccccc3c2CC1.O=C(O)/C=C/C(=O)O`, “recovery time constant” read 9.6 ± 0.2 s (Neuronal acetylcholine receptor; alpha9/alpha10 (Homo sapiens, UniProt Q9GZZ6+Q9UGM1); ion current, inhibitor, two-electrode voltage clamp; Xenopus laevis oocytes; 3 µM, human receptor, together with: acetylcholine 6 µM).
Under “11β-hydroxylation product formation rate”, `C[C@]12CC[C@H]3[C@@H](CCC4=CC(=O)CC[C@@]43C)[C@@H]1CC[C@@H]2C(=O)CO` is recorded as 30.5 ± 1.1 min⁻¹ (Cytochrome P450 11B1, mitochondrial (CYP11B1, Homo sapiens, UniProt P15538); substrate; 100 µM, 37 °C, phospholipid vesicles).
The Jmax of `O=C(O)C(F)(F)C(F)(F)C(F)(F)C(F)(F)C(F)(F)C(F)(F)C(F)(F)F` is reported as 1490 ± 543 pmol/min/mg protein (Solute carrier organic anion transporter family member 2B1 (SLCO2B1, Homo sapiens, UniProt O94956); substrate, uptake; CHO stably expressing SLCO2B1; 1 min, 37 °C).
For `COc1cc(Nc2ncc(F)c(Nc3ccc4c(n3)NC(=O)C(C)(C)O4)n2)cc(OC)c1OC`, the inhibition was 41% (Calcium/calmodulin-dependent protein kinase type II subunit beta (CAMK2B, Homo sapiens, UniProt Q13554); KINOMEscan; 10 µM).
Under activity, `CC(C)(C)C(=O)C1C(=O)c2ccccc2C1=O` is recorded as “inactive” (Bile acid receptor (NR1H4, Homo sapiens, UniProt Q96RI1); concentration not given).
`Clc1ccc(-c2cc(Cl)ccc2Cl)cc1` gave an IC25 of 16 µM (Aryl hydrocarbon receptor (AHR, Homo sapiens, UniProt P35869); reporter gene, antagonist; AZ-AHR cells; 24 h, together with: TCDD 4.5 nM).
For `COc1ccc(N2C(=O)N(c3c(C)cccc3Cl)Cc3cnc(Nc4ccc(C5CCN(C)CC5)cc4OC)nc32)nc1`, the inhibition was 2.62% (Serine/threonine-protein kinase PLK4 (PLK4, Homo sapiens, UniProt O00444); kinase activity; 0.5 µM).
With `Oc1ccc2ccc3cccc4ccc1c2c34` the fold change was 1.89 (Aryl hydrocarbon receptor; reporter gene, agonist, luciferase reporter; ZF-4; 370.37 µM; baseline: vehicle control).
Under “log2 fold change”, `CC[C@H](C)[C@H](NC(=O)CNC(=O)[C@@H](N)CCCCN)C(=O)N[C@@H](CC(C)C)C(=O)N[C@@H](CCCCN)C(=O)N[C@@H](CCCNC(=N)N)C(=O)N[C@@H](CCC(=O)O)C(=O)N[C@@H](CCCCN)C(=O)N[C@@H](CCCNC(=N)N)C(=O)N[C@@H](CC(C)C)C(=O)N[C@@H](CCCNC(=N)N)C(=O)N[C@@H](CCCNC(=N)N)C(=O)N[C@@H](CCCCN)C(=O)N[C@@H](CC(N)=O)C(=O)N[C@H](C(=O)N[C@@H](Cc1c[nH]cn1)C(=O)N[C@@H](Cc1c[nH]c2ccccc12)C(=O)N1CCC[C@H]1C(=O)N[C@@H](CCC(=O)O)C(=O)N[C@@H](CCC(=O)O)C(=O)NCC(=O)N[C@@H](CCCCN)C(=O)N[C@@H](CC(C)C)C(=O)N[C@@H](CCCNC(=N)N)C(=O)N[C@@H](CCC(=O)O)C(=O)N[C@@H](Cc1ccccc1)C(=O)N[C@@H](Cc1ccccc1)C(=O)N[C@@H](Cc1ccccc1)C(=O)N[C@@H](Cc1ccccc1)C(=O)N[C@@H](CCC(=O)O)C(=O)N[C@@H](CC(C)C)C(=O)N[C@@H](CC(=O)O)C(=O)N[C@@H](CCC(=O)O)C(=O)N[C@@H](C)C(=O)N[C@@H](CCC(=O)O)C(=O)N[C@@H](CCCNC(=N)N)C(=O)N[C@H](C(=O)N[C@@H](CC(N)=O)C(=O)N[C@H](C(=O)O)C(C)C)C(C)C)C(C)C` is recorded as -6.11 (protein phosphatase 1 complexes; bead binding, competitive inhibitor, inhibitor bead pulldown LC-MS/MS, refers to: WDR92; HeLa and HEK293T cells, cell lysate; concentration not given; baseline: compound over control).
The activation of `CN1CCN(c2cc(-c3ccncc3)c(-c3ccc4ccccc4c3)nn2)CC1` is reported as 0.2% (Corticotropin-releasing factor receptor 1 (CRHR1, Homo sapiens, UniProt P34998); agonist, FLIPR; 12.5 µM).
Under “surface TFRC expression”, `CC[C@@H](C)[C@@H](NC(=O)[C@@H](Cc1ccc(O)cc1)NC(=O)[C@H]1CCCN1C(=O)[C@@H](CCCNC(=N)N)NC(=O)[C@H](N)Cc1c[nH]cn1)C(=O)N[C@H](C)C(=O)N[C@H](Cc1c[nH]cn1)C(=O)N[C@H](CCCNC(=N)N)C(=O)N[C@H](CCCCNC(=O)c1cccc(S(=O)(=O)F)c1)C(=O)N[C@H](Cc1ccc(O)cc1)C(=O)N[C@H](CO)C(=O)N[C@H](Cc1ccccc1)C(N)=O` is recorded as 0.907 (Transferrin receptor protein 1 (Tfrc, Mus musculus, UniProt Q62351); flow cytometry; RAW264.7; 24 h, pH 7.4, unit not given; baseline: 0 h).
